Assay results collected from several papers.
“And” joins repeats or separate records; there may be more than shown. ± gives the spread as reported.
Abcb1a: ATP-dependent translocase ABCB1 (Abcb1a, Mus musculus, UniProt P21447)
Sequence of UniProt P21447 (whole entry, looked up): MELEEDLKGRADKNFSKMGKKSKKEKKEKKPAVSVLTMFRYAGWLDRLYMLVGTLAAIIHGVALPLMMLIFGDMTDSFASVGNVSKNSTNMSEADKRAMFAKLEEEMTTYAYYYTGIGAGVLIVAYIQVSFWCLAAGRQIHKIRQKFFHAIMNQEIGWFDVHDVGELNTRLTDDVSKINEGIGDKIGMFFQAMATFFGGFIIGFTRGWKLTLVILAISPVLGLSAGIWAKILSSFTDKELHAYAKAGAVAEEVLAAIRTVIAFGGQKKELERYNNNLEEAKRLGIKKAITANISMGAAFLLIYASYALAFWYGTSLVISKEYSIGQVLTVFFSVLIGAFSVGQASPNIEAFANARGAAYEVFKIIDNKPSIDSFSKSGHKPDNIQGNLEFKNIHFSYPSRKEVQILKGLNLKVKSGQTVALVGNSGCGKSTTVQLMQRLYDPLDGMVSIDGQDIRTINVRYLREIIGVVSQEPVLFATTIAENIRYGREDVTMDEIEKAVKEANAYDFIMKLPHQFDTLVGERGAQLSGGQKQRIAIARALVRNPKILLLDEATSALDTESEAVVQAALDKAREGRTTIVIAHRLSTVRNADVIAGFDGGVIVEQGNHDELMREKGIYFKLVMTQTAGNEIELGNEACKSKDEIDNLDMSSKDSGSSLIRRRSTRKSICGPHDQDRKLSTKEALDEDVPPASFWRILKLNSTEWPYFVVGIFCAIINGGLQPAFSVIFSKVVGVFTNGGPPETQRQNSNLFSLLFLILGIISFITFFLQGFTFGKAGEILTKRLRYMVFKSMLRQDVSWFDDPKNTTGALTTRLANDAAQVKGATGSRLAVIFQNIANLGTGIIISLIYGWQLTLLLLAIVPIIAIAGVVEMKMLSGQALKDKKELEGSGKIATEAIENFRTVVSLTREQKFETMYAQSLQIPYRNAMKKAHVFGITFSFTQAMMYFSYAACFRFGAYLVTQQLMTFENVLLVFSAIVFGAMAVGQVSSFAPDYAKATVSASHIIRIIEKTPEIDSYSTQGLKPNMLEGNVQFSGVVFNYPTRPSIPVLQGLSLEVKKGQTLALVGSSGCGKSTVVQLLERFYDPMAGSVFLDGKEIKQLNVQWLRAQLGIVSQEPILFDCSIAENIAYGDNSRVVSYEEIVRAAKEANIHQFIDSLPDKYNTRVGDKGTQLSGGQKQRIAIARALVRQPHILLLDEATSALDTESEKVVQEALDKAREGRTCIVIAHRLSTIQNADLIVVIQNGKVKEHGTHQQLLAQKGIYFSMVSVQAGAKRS
CYP1A2: Cytochrome P450 1A2 (CYP1A2, Homo sapiens, UniProt P05177)
Sequence of UniProt P05177 (whole entry, looked up): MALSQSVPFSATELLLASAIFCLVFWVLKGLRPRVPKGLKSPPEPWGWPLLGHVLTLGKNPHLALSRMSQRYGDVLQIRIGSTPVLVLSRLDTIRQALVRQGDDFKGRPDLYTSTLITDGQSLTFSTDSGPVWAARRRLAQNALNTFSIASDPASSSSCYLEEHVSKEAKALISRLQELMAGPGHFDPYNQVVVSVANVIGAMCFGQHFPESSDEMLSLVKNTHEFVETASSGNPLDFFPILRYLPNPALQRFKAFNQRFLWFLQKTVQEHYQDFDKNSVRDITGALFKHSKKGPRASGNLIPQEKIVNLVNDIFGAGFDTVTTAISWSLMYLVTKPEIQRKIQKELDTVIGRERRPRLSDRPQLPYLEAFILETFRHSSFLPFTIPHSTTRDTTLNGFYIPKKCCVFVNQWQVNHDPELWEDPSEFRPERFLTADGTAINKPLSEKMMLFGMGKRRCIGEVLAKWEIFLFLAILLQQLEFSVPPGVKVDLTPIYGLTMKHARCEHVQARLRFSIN
Sequence of UniProt P08684 (whole entry, unmodified, looked up): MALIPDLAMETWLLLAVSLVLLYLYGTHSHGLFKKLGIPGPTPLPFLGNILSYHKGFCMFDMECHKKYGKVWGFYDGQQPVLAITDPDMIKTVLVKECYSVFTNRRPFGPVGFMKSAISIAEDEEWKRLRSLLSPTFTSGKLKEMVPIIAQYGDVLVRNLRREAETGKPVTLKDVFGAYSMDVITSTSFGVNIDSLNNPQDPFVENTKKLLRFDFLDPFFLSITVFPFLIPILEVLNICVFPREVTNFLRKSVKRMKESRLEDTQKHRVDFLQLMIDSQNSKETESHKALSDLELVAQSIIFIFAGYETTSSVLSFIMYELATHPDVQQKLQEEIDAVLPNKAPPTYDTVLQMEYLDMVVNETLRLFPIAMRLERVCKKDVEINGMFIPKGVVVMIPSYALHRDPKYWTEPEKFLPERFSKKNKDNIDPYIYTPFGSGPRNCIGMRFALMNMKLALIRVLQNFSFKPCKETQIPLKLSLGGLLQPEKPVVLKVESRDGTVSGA
Sequence of UniProt P34913 (whole entry, looked up): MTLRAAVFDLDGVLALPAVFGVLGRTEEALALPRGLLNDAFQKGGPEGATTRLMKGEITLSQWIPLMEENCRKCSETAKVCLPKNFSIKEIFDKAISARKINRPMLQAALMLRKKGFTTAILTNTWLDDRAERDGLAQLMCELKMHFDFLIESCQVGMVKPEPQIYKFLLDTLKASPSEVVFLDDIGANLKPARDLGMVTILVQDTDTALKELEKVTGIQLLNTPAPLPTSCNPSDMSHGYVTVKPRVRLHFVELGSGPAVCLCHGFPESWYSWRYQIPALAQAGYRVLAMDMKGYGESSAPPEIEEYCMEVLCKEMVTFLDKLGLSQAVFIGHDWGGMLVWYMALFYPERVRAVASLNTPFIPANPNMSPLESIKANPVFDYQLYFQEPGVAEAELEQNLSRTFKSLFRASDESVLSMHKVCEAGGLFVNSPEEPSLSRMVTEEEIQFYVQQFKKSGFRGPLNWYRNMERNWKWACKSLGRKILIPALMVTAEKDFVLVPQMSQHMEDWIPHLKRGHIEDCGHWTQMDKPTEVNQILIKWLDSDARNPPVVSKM
Sequence of UniProt O00519 (whole entry, looked up): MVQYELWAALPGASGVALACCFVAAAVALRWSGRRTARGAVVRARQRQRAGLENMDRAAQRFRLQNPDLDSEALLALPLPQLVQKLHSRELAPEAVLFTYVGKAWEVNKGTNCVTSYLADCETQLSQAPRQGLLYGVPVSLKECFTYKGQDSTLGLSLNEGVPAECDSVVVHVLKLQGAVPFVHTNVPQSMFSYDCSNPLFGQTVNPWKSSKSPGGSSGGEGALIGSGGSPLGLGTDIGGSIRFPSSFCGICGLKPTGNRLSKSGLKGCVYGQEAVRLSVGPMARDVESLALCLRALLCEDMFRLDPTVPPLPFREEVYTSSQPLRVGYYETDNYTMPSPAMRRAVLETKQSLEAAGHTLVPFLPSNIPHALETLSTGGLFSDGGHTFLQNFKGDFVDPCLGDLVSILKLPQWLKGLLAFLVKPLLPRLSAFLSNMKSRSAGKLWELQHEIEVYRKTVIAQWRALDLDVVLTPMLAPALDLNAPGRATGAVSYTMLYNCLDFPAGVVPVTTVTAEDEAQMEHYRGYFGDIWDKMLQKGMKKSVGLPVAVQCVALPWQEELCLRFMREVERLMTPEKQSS
Sequence of UniProt P06873 (whole entry, looked up): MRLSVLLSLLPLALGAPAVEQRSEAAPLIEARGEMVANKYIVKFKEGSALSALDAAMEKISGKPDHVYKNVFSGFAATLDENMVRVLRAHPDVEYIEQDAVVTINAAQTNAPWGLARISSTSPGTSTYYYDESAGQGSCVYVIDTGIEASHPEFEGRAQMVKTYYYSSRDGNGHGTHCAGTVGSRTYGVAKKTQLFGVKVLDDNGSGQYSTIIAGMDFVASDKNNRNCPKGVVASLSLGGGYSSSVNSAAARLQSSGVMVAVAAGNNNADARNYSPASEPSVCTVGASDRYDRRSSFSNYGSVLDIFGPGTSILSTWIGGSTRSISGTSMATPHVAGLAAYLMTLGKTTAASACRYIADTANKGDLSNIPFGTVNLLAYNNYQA
Sequence of UniProt P05181 (whole entry, looked up): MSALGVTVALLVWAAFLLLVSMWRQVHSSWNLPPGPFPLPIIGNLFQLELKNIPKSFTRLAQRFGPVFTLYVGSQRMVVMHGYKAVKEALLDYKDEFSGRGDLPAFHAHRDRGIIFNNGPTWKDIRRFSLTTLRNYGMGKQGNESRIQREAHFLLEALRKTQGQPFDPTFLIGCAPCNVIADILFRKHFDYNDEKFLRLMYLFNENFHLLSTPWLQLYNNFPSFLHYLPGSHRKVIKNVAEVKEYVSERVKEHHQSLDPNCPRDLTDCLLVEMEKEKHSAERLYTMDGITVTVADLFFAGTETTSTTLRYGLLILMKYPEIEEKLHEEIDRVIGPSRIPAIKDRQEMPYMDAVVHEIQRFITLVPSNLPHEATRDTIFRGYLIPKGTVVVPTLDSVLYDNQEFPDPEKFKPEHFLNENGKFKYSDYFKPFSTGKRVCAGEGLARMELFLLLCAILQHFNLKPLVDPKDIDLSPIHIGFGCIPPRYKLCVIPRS
Sequence of UniProt P43235 (whole entry, looked up): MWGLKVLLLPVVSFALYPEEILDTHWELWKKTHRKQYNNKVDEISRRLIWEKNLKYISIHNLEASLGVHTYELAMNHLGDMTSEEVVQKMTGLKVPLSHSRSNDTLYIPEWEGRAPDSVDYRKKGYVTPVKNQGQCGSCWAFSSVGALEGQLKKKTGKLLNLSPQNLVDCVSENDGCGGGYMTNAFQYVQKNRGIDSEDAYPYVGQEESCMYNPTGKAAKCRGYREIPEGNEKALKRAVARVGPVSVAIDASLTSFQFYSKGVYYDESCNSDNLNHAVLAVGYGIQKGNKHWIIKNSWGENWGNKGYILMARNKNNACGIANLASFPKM
Sequence of UniProt Q3UFF7 (whole entry, looked up): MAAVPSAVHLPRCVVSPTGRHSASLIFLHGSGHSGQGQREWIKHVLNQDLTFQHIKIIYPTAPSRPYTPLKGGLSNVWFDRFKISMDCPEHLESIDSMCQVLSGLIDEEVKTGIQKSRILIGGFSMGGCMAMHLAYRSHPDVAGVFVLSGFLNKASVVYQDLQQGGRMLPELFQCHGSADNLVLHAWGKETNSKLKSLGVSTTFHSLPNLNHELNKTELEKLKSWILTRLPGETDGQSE

For `[64Cu+2].c1cnc(CNCc2ccc(CN3CCCN4CCNCCCN(CC4)CC3)cc2)nc1`, the tissue uptake was 0.4 ± 0.01 %ID/g (CXCR4; NOD/SCID mouse, U87 and U87-stb-CXCR4 xenografts, muscle; iv, 60 min, ex vivo).
Under “brain uptake ratio”, `[11CH3]N1CCCC[C@H]1[C@@H](NC(=O)c1nccc(C(F)(F)F)c1Cl)c1cccc(-c2cn[nH]c2)c1` is recorded as 4 (Abcb1a; mouse; together with: cyclosporin A 50 mg/kg iv; relative to: cyclosporin A over control).
`COc1cc(-c2nc3ccccc3s2)cc(CN(Cc2ccccn2)Cc2ccccn2)c1O` has a pZn of 8 (Zn2+; 50 µM, pH 7.4, metal to ligand 1:1).
`Cc1nc2ccc(S(=O)(=O)n3nc(SCc4ccc(Cl)cc4)nc3N)cc2s1` — result for “activity-based probe labelling”: 2 fold (Lysophospholipase-like protein 1 (Mus musculus, UniProt Q3UFF7); gel-based ABPP; C57BL/6J mouse, male, liver; intraperitoneal, 100 mg/kg, 25 min, together with: LYPLAL1 alkyne probe 5 mg/kg; relative to: vehicle).
`CC(C)C[C@H](NC(=O)[C@H](CO)NC(=O)[C@H](CC(C)C)NC(=O)[C@@H]1CCCN1C(=O)CNC(=O)[C@H](Cc1ccccc1)NC(=O)OCC1c2ccccc2-c2ccccc21)C(=O)N[C@@H](CCCNC(=N)N)C(=O)N[C@@H](CO)C(=O)N[C@@H](CCCCN)C(=O)O` has a remaining substrate of 19% (MMP-9; substrate, HPLC; 500 µM, 72 h, pH 7.5, 37 °C, together with: 10 U MMP-9).
For `COc1ccc2cc(NC(=O)c3cc(-c4ccncc4)nc4ccccc34)ccc2c1`, “koff fast phase” read 0.03 s⁻¹ and 0.034 s⁻¹ (Cytochrome P450 3A4 (CYP3A4, Homo sapiens, UniProt P08684, S18F); binding, surface plasmon resonance; 10 °C).
`Brc1ccccc1-c1nnc(CSc2nnnn2-c2ccccc2)o1` gave an inhibition of 46% (CYP1A2; enzyme activity, inhibitor, fluorescence; insect cell microsomes; 10 µM).
`COc1cc2c(cc1OC)CN(CCCCn1ccc3cc(OCC[18F])ccc31)C2`: “increase in brain/blood ratio” 50% (Abcb1a; ICR mice, male; intravenous, dose not given, 2 min, together with: cyclosporine A 50 mg/kg iv, 60 min before; relative to: no cyclosporine A).
`O=C(Nc1ccc(C(F)(F)F)nc1)N1CCC(Cc2cccc(Oc3ccc(C(F)(F)F)cn3)c2)CC1` has a dissociation half-life of 2 min (Bifunctional epoxide hydrolase 2 (EPHX2, Homo sapiens, UniProt P34913); FRET displacement).
For `CC(C)C[C@H](NC(=O)CNC(=O)[C@H](CC(C)C)NC(=O)[C@@H]1CCCN1C(=O)CNC(=O)[C@H](Cc1ccccc1)NC(=O)OCC1c2ccccc2-c2ccccc21)C(=O)N[C@@H](CCCNC(=N)N)C(=O)N[C@@H](CO)C(=O)N[C@@H](CCCCN)C(=O)O`, the remaining substrate was 10% (MMP-9; substrate, HPLC; 500 µM, 72 h, pH 7.5, 37 °C, together with: 10 U MMP-9).
`NCCCC[C@H](NC(=O)[C@H](Cc1ccc(O)cc1)NC(=O)[C@H](CCCCN)NC(=O)[C@H](Cc1c[nH]c2ccccc12)NC(=O)[C@H](Cc1ccccc1)NC(=O)[C@H](Cc1ccccc1)NC(=O)Cc1ccc(-c2ccccc2)cc1)C(=O)NCC(=O)N[C@@H](Cc1c[nH]cn1)C(=O)N1CCC[C@H]1C(=O)NCC(=O)NCC(=O)N1CCC[C@H]1C(=O)N[C@@H](CCC(N)=O)C(=O)N[C@@H](CC(=O)O)C(=O)N[C@@H](CC(=O)O)C(=O)N[C@@H](CC(=O)O)C(=O)N[C@@H](CC(=O)O)C(=O)N[C@@H](CC(=O)O)C(=O)N[C@@H](CC(=O)O)C(=O)O` has a zeta potential of 19.6 mV (Cathepsin K (CTSK, Homo sapiens, UniProt P43235); Zetasizer; MES buffer; 64 µM, pH 5.5, with enzyme, after cleavage, together with: CTSK 800 ng/mL).
`CC(C)C[C@H](NC(=O)[C@@H]1CCCN1)C(=O)N[C@@H](CO)C(=O)N[C@@H](CC(C)C)C(=O)N[C@@H](CCCNC(=N)N)C(=O)N[C@@H](CO)C(=O)N[C@@H](CCCCN)C(=O)O` gave a remaining substrate of 5% (MMP-9; substrate, HPLC; 500 µM, 72 h, pH 7.5, 37 °C, together with: 10 U MMP-9).
`O=C(O)c1cc(Br)c(O)c(Br)c1` has a Ki of 1000 nM (Cytochrome P450 2E1 (CYP2E1, Homo sapiens, UniProt P05181); p-nitrophenol hydroxylation, noncompetitive inhibitor, calculated from IC50; baculosomes).
For `CC(C)C[C@H](NC(=O)[C@H](CC(N)=O)NC(=O)[C@H](CCCNC(=N)N)NC(=O)[C@@H](CC(C)C)NC(=O)[C@H](Cc1ccc(-c2ccccc2)cc1)NC(=O)[C@H](CC(=O)O)NC(=O)[C@H](CCCCN)NC(=O)[C@@H](CC(C)C)NC(=O)[C@H](CCCNC(=N)N)NC(=O)[C@H](CCC(N)=O)NC(=O)[C@@H](NC(=O)[C@@H](CC(C)C)NC(=O)[C@H](CCCNC(=N)N)NC(=O)[C@H](CCCCN)NC(=O)[C@H](Cc1ccc(-c2ccccc2)cc1)NC(=O)CN)C(C)C)C(=O)N[C@H](C(N)=O)C(C)C`, the stability time was no less than 24 h (Proteinase K (PROK, Engyodontium album, UniProt P06873); substrate, tricine SDS-PAGE; pH 8, 37 °C, together with: peptide:protease 40:1).
For `COc1cc(-c2nc3ccccc3s2)cc(CN(C)Cc2ccccn2)c1O`, the pZn was 7.3 (Zn2+; 50 µM, pH 7.4, metal to ligand 1:1).
The −ΔG of `O=C(O)[C@@H]1C[C@@H](O)CN1C(=O)[C@@H]1CCCN1` is reported as 15.9 kcal/mol (iron(III) ion; complex formation, from log β; aqueous 0.15 M NaCl; 37 °C, MAH−1 complex species).
`C[C@]12CC[C@@H]3c4ccc(OCC(=O)N[C@@H](CCCCNC(=O)CN5CCN(CC(=O)[O-])CCN(CC(=O)[O-])CCN(CC(=O)[O-])CC5)C(=O)O)cc4CC[C@H]3[C@@H]1CCC2=O.[68Ga+3]` gave a radioactivity uptake of 1.3 ± 0.22 %ID/g (estrogen receptor; nude mice, MCF7 xenograft, uterus; dose not given, 2.5 h post-injection, no blocking dose).
With `CC(C)C[C@H](NC(=O)[C@H](CO)NC(=O)[C@H](CC(C)C)NC(=O)[C@@H]1CCCN1C(=O)CNC(=O)[C@H](Cc1ccccc1)NC(=O)[C@H](Cc1ccccc1)NC(=O)OCC1c2ccccc2-c2ccccc21)C(=O)N[C@@H](CCCNC(=N)N)C(=O)N[C@@H](CO)C(=O)N[C@@H](CCCCN)C(=O)O` the remaining substrate was 91% (MMP-9; substrate, HPLC; 500 µM, 72 h, pH 7.5, 37 °C, together with: 10 U MMP-9).
`Cn1cnc(C(=O)N(Cc2ccc(F)c(OC3CCCC3)c2)C2CC3CN([11CH3])CC3C2)c1` (stereo not drawn): “brain uptake increase” 12 fold (Abcb1a; mouse; together with: cyclosporin A 50 mg/kg i.v.; relative to: no cyclosporin A).
`C=CC(=O)Nc1cc(Nc2nccc(-c3cn(C)c4ccccc34)n2)c(OCC(F)(F)F)nc1N(C)CCN(C)C` — result for “activity vs control”: 74.1% (CYP1A2; enzyme activity, inhibitor; human, liver microsomes; 0.33 µM).
`O=C(Nc1ccccc1)c1ccc(Nc2nnc(-c3ccc(O)cc3)c3ccccc23)cc1` gave a hydrolysis of roughly 5% (Fatty-acid amide hydrolase 1 (FAAH, Homo sapiens, UniProt O00519); substrate; concentration not given, 24 h, 37 °C).
For `O=C(CS(=O)(=O)Cc1ccco1)C12CC3CC(CC(C3)C1)C2`, inhibition read “no inhibition” (CYP1A2; inhibitor; 10 µM).
For `[64Cu+2].c1ccc(CNCc2ccc(CN3CCCN4CCNCCCN(CC4)CC3)cc2)nc1`, the tissue uptake was 0.32 ± 0.02 %ID/g (CXCR4; NOD/SCID mouse, U87 and U87-stb-CXCR4 xenografts, muscle; iv, 90 min, ex vivo, together with: AMD3465 25 mg/kg sc before tracer).
For `COc1cc(CC(O)C(=O)O)ccc1O` (stereo not drawn), demethylation read “not detected” (cytochrome P450 (rat); substrate; NADPH-fortified rat liver microsomes).

Excerpt of the above:
`COc1cc2c(cc1OC)CN(CCCCn1ccc3cc(OCC[18F])ccc31)C2`: “increase in brain/blood ratio” 50% (Abcb1a; ICR mice, male; intravenous, dose not given, 2 min, together with: cyclosporine A 50 mg/kg iv, 60 min before; relative to: no cyclosporine A).
`O=C(Nc1ccc(C(F)(F)F)nc1)N1CCC(Cc2cccc(Oc3ccc(C(F)(F)F)cn3)c2)CC1` has a dissociation half-life of 2 min (Bifunctional epoxide hydrolase 2 (EPHX2, Homo sapiens, UniProt P34913); FRET displacement).
For `CC(C)C[C@H](NC(=O)CNC(=O)[C@H](CC(C)C)NC(=O)[C@@H]1CCCN1C(=O)CNC(=O)[C@H](Cc1ccccc1)NC(=O)OCC1c2ccccc2-c2ccccc21)C(=O)N[C@@H](CCCNC(=N)N)C(=O)N[C@@H](CO)C(=O)N[C@@H](CCCCN)C(=O)O`, the remaining substrate was 10% (MMP-9; substrate, HPLC; 500 µM, 72 h, pH 7.5, 37 °C, together with: 10 U MMP-9).
